# Measured values collected from several papers.
# Numbered parts are unrelated; each lists some results of a single study.

# Sample 1 — technique: protein-binding microarray; molecule type: double-stranded DNA, one strand shown; medium: in vitro; tested at: 250 nM; setting: 60-bp whole probe; with: salmon DNA 0.4 mg/ml; reference: random background probes; direction: higher = stronger binding; shared flanks, not repeated: GCCTAGCAC … GTCTTGATTCGCTTGACGCTGCTG
# Target: Interferon regulatory factor 7, full length, phosphomimetic (IRF7, Homo sapiens, UniProt Q92985, residues 1-503, S101K/S471D/S472D/S475D/S476D/S477D/S483D/S484D/S487D)
# Target sequence (chain): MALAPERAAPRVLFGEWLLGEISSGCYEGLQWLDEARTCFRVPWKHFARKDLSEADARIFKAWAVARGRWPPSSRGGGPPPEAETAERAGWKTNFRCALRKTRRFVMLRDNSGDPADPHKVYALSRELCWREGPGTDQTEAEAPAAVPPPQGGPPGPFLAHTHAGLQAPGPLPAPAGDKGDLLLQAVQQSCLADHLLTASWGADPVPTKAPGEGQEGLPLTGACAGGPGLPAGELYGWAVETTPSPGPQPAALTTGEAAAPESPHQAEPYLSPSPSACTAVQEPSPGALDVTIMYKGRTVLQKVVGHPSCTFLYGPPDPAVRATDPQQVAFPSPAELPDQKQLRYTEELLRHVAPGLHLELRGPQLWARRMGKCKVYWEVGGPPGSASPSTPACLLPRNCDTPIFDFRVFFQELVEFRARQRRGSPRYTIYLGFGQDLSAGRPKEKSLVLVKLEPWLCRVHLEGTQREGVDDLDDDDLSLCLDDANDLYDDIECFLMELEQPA
Oligonucleotide,log fluorescence [z-score]
GGGAGCTATTAATTATTTTGGTGCTAG,-0.296
GACGGTATCGACACTGGGGGCGTGCTA,0.531
TTATGACTGGGACTGGGTTAGTGCTAG,0.0601
TTAGGTCTCCTTTTCCTTTGGTGCTAG,1.82
TTTGAACTGGGGTATCGATTAGTGCTA,0.166
GATGAACTGGGGTTTCGAGACGTGCTA,1.93

# Sample 2 — technique: universal PBM; molecule type: double-stranded DNA, one strand shown; medium: in vitro; tested at: 600 nM; direction: higher = stronger binding
# Target: Sal-like protein 4, full length isoform A (SALL4, Homo sapiens, UniProt Q9UJQ4, residues 1-1053)
# Chain of UniProt Q9UJQ4 (whole entry, looked up): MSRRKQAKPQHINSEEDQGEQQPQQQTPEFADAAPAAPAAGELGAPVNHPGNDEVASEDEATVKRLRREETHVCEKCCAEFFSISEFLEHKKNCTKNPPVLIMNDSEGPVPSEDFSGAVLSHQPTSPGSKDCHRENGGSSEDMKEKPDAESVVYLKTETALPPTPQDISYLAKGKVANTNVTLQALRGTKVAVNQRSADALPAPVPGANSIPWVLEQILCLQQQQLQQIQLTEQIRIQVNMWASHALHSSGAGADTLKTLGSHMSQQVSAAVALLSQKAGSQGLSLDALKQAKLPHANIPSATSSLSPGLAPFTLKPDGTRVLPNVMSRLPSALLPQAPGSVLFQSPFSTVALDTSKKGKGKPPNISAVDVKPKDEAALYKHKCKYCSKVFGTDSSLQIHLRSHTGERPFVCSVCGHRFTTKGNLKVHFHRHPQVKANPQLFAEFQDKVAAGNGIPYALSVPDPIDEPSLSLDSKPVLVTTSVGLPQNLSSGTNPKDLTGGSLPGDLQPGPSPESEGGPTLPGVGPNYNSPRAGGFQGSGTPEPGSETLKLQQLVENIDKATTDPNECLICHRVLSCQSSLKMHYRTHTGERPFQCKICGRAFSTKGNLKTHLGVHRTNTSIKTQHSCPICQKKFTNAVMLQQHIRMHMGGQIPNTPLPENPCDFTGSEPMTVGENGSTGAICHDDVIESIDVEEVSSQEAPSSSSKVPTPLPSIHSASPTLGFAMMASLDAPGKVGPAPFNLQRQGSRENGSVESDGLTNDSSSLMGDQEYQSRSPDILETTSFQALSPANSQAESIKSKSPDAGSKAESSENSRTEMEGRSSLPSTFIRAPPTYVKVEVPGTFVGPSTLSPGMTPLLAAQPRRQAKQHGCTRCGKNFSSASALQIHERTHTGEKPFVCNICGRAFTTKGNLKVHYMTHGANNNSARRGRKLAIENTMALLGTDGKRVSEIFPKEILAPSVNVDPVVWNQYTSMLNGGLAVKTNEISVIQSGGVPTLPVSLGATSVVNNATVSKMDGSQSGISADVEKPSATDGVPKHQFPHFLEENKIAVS
# Setting: 8-mer, flanks averaged, mean of replicates
Oligonucleotide,E-score
ACCCGCAA,-0.192
ATAGTCGC,0.0537
CTGTTGAC,-0.0443
CTCCTTTA,0.0477
CAAGACCG,-0.248

# Sample 3 — technique: RNA Bind-n-Seq; molecule type: RNA; medium: in vitro; tested at: 200 nM; setting: whole 134-nt RNA, ends assumed; with: 150 mM LiCl; reference: input library; direction: higher = stronger binding; all molecules: 7-deaza-guanosine replaces G
# Target: Fragile X messenger ribonucleoprotein 1, C-terminal low-complexity region (Fmr1, Mus musculus, UniProt P35922)
# Shared flanks, not repeated: GGGAGUUCUACAGUCCGACGAUC … UGGAAUUCUCGGGUGUCAAGG
Oligonucleotide,log2 enrichment
CACAGACAACACGCACCCACACAGACGCAGAGGGAAGGGGUUGGGAUGGGGACAGGGUGCACAGCAGGGCGGGGUAGGACCCCAGCCCCU,0.536
UCCUCAAGUCCUGUGCUACACAUCGUAUGUACCGAAUCGGAGGGGAGGAGGGAAAGUAUUAUGUUACGCCGUUCGGAUCUGCACUUCCAG,-1.24
GCAGGAAGUAAAAACAAAUGGAAAUGCUUCGGAUAGUGGCAGGGGUGGGGGUUGCUAAGGAAAGGGUGGGAUGGGUGUGGGUAAAGAGUU,1.92
CACAGACAACACGCACCCACACAGACACAGAGCGAAGGGGUUGGGAUGGGGACAGGGUGCACAGCAGGGCGGGGUAGGACCCCAGCCCCU,0.278
CUGUGCUACACAUCGUAUGUACCGAAUCGGAAAAAAAGGAAAAAAAGGGGAAAAAAAGGGGAAAGUAUUAUGUUACGCCGUUCGGAUCUG,-0.244
AAGUCCUGUGCUACACAUCGUAUGUACCGAAUCGGGGAAAAGGAAAAGGGAAAAGGGAAAGUAUUAUGUUACGCCGUUCGGAUCUGCACU,0.015

# Single results of other studies
Molecule,target,test,test system,setting,how to read,quantity,value
"PhoQ, residues 284 288 289 292 302 303 GTAMQF","PhoP, residues 12 14 15 18 19 VQALL (Escherichia coli, UniProt P23836)","Sort-seq, refers to: YFP reporter",E. coli,"PhoQ-PhoP variant library, with: 10 µM Mg2+","reference: high Mg2+ state, higher = stronger signaling",fold induction,25.8
